Experimental data of several laboratories.
Parts stem from different laboratories: compare values within a part only.

Set 1
Target: Fragile X messenger ribonucleoprotein 1, C-terminal low-complexity region (Fmr1, Mus musculus, UniProt P35922)
Method: RNA Bind-n-Seq
Molecule type: RNA
Sample: in vitro
Tested at: 200 nM
Setting: whole 134-nt RNA, ends assumed
Together with: 150 mM LiCl
Reference: input library
Reading: higher = stronger binding
Each molecule: 7-deaza-guanosine replaces G
For `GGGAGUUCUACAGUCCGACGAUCACCAUGCAGGUGGGCAUCUUUGGGAAGUGGGGCAAGGGGGGGAUAGGGAGGGGGGUAACACUUUGGGAAGAGGUGGUCCCAGGUCGUUUCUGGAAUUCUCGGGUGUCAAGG`, the log2 enrichment was 1.33.
For `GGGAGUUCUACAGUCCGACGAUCAAGUCCUGUGCUACACAUCGUAUGUACCGAAUCGGUUUGGGGUUUGGGGUUUGGGGAAAGUAUUAUGUUACGCCGUUCGGAUCUGCACUUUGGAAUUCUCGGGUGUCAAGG`, the log2 enrichment was -2.05.
For `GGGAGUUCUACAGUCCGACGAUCGUCCUGUGCUACACAUCGUAUGUACCGAAUCGGGAAAAAGGGAAAAAGGGUUUUUGGGAAAGUAUUAUGUUACGCCGUUCGGAUCUGCACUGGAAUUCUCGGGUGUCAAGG`, the log2 enrichment was -1.77.
For `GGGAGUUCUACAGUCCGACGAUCACCAUGCAGGUGGGCAUCUUUGGGAAGUGGGGCAAGGAAAGGAUAGGGAGGGGGGUAACACUUUGGGAACAGGUGGUCCCAGGUCGUUUCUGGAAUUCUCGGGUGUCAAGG`, the log2 enrichment was 0.654.
`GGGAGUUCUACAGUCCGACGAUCUGCCUUGCAGAUACGUGGCUUUCCUGAAGCUGUUCCUGGAGACGGCGGAGAAGCACUUCAUGGUGGGCCACCGUGUCCACUACUAUGUCUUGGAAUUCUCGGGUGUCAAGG` gave a log2 enrichment of -0.499.
`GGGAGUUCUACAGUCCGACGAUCGCAGGAAGUAAAAACAACUGGAAAUGCUUCGGAUAGUGGCAGGGGUGGGGGUUGCUAAGGAAAGGGUGGGAUGGGAGUGGGUAAAGAGUUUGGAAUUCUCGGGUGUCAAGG` has a log2 enrichment of 1.24.
`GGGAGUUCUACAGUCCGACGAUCCAAGUCCUGUGCUACACAUCGUAUGUACCGAAUCGGGUGGGAAAAAAAGGGUGGGAAAGUAUUAUGUUACGCCGUUCGGAUCUGCACUUCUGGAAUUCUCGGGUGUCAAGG` has a log2 enrichment of -0.382.
The log2 enrichment of `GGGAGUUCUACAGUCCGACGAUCUGGGAGGUGGAUUUUGUUUAUUUUUUUAGCUCAUUUCCAGGGGUGGGAAUUUUUUUUUAAGAUGUGUCAUGAAUAAAGUUGUUUUUGAAAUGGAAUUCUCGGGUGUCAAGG` is reported as 0.152.
For `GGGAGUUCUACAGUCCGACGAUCCAAGUCCUGUGCUACACAUCGUAUGUACCGAAUCGGGCCCGGGCCCGGGCCCGGGGAAAGUAUUAUGUUACGCCGUUCGGAUCUGCACUUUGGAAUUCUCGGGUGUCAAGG`, the log2 enrichment was -2.65.
The log2 enrichment of `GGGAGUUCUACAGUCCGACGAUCGUCCUGUGCUACACAUCGUAUGUACCGAAUCAAACCCCCAAAUUUUUUUAAAUUUAAAAAAGUAUUAUGUUACGCCGUUCGGAUCUGCACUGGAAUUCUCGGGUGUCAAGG` is reported as 0.544.
The log2 enrichment of `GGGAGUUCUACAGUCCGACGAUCUCCUCAAGUCCUGUGCUACACAUCGUAUGUACCGAAUCGGGAGGAGGGGAGGAAAGUAUUAUGUUACGCCGUUCGGAUCUGCACUUCCAGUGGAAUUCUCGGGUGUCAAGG` is reported as -1.33.

Set 2
Target: RNA binding protein fox-1 homolog 2, RRM domain, GST-SBP tag (RBFOX2, Homo sapiens, UniProt O43251-10, residues 100-194)
Method: RNA Bind-n-Seq
Molecule type: RNA
Sample: in vitro
Tested at: 365 nM
Setting: natural RNA segment, single round, ends assumed
Reference: no-protein control
Reading: higher = stronger binding
Residues (chain): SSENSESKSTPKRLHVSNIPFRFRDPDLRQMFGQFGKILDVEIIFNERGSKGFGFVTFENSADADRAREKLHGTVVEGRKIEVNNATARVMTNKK
For `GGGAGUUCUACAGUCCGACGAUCUGCUUGUCAGAGCUGUGGCAGUACUUAACUCUGAGGAUGUAGGAGACGUGACUGGCUUUUAGAGUGAGCAUUUCAGUGGUUAGCUAUCAGCUUUUGAAGUCUGGGCAGUUUGGAAUUCUCGGGUGCCAA`, “RBNS enrichment (R)” read 2.97.
For `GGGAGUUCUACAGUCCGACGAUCAGAUCCUGUCAUCAUGGGACGUCAGUGUUUUUUGUUAAAGGGGACAUACAUGGGGGCAUGUCAUGGGGAUAGAUCAAGAGGCACCAGCCAUUCUUGAGUUUGCCAGCUCCUGGAAUUCUCGGGUGCCAA`, “RBNS enrichment (R)” read 0.995.
`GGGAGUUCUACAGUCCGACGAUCCCUCCUGGGCACCCCGUGUGCUGUGAUCUCCUGGGCUUUCAGGCUUGACAUGCUGGUCUGGGGAGAGACAGGGCCUCUGCUGCCCUGUUCUUCACCCUCACAGUGAUACCUGGAAUUCUCGGGUGCCAA`: “RBNS enrichment (R)” 0.297.
For `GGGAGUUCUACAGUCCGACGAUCUGUGGAGGAGCUAACUCGGAUCCAUUAGCCAAGGGCAGGGGGCCCCUUUGCUGACCCUCCCCAAAGGCUUUGCCCUGCUGCCCUCCCCCUCCUCUCCACCAUCGUCUUCUUGGAAUUCUCGGGUGCCAA`, “RBNS enrichment (R)” read 0.62.
For `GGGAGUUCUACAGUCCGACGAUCUUGACUAAAACAAGAUAAUGAGACAUAAUUUUCUUUAUAAUGUGUACAACACCUAAUAUACACUAACAGCAGUAAGACUAAGCCAGGCAGUCUUAAAAAAUUCUAUCAGAUGGAAUUCUCGGGUGCCAA`, “RBNS enrichment (R)” read 0.429.
`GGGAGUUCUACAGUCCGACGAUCCUGAAGCAACCUUCAAUUUUCAUAAGCCAAGUCUUGGGUCCAGGGAACUCCACAGUGCUCCCACCCCCACCCCCUCUACUGAUUACAAGGAAUCCUACAUGCCAUCUUCAUGGAAUUCUCGGGUGCCAA` — result for “RBNS enrichment (R)”: 0.458.
Under “RBNS enrichment (R)”, `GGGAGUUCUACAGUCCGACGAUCAAUUUAAGUUUCAAAUUAGUUCUCUAUAUGAGAUACUUAAUCGAGCAUAUAUAUUUAUAUUCAUUGAUCAAACUGAUAUGCUACAGGAGAAUGUAUGCAAUGUGUAAAAAUGGAAUUCUCGGGUGCCAA` is recorded as 0.923.
`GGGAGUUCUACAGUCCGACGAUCUUGCAUAGAGGUUCAAGUUCAAAGCUCAGACACACCAGUCACUCAAACAACCGAAGCUGUGAAAAAGGUCGAAGAAACUGUGGCAACUUCAGAGAUGGAUGAAAGUUUGGUGGAAUUCUCGGGUGCCAA`: “RBNS enrichment (R)” 0.674.
`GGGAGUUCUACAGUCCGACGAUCAGAUUAUUUCAGAAAAAUGCAAUAAGGGGAAUAGUUUUGGGGUUUAUUUUUUAUUUUAAAAGAAAAUUGACUUAUUUACCACAAGCUAUUUUUUUCCCUUCUGGCUGUAAUGGAAUUCUCGGGUGCCAA` — result for “RBNS enrichment (R)”: 0.695.
`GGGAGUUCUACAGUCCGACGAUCCUGAAGAUGUGUUCAAUAUUUGUGGGAGGUUUGUCAUAAUCAGUUGGUGGGGUUCACUGCUCUGUUGUCCUGCUCUCUAACCACAGACAGGUAAGGAUUACCUUCUCUAGUGGAAUUCUCGGGUGCCAA` — result for “RBNS enrichment (R)”: 0.586.
For `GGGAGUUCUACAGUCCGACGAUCUUUCUUGAAAUGAAGGUGCCUUAAGAGAGACCAUGUAUAGAACCCAGGAAGAAAUGCAAAAUCAUGAAGAUGUUAAUGUUGGUUCUAUUUUGAUUCAACAUCACAAAAAAUGGAAUUCUCGGGUGCCAA`, “RBNS enrichment (R)” read 0.948.
`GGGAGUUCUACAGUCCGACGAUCGAUAUAUACUUUAUAUUGGGUAUGAGAGAUCUGUGUUUGGGUUUUAUAGAUUUUAGCUUUUGACACGUUUGCCUCUUUAAAUUUACUUUUCAUAAAUCCCCUUAUUAGAAUGGAAUUCUCGGGUGCCAA` — result for “RBNS enrichment (R)”: 1.88.

Set 3
Target: PABPC1L2, full length, GST fusion (mouse, UniProt A0ABA7IW68)
Method: RNAcompete
Molecule type: RNA
Sample: in vitro
Tested at: 20 nM
Setting: 7-mer, probes averaged, single round
Reference: mean of 7-mers
Reading: higher = stronger binding
Residues (chain): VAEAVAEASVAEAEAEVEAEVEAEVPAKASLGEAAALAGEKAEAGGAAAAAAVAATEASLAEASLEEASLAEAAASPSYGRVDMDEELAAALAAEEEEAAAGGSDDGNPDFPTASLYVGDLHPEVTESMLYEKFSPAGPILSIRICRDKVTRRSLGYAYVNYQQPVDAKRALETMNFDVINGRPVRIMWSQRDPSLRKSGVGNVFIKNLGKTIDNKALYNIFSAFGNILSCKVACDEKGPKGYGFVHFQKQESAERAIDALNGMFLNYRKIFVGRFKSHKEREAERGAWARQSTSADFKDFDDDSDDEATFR
For `AGCAACA`, the 7-mer Z-score was 0.167.
With `GUCUCUC` the 7-mer Z-score was -0.298.
The 7-mer Z-score of `CUCCAUC` is reported as -0.356.
The 7-mer Z-score of `UGCACGU` is reported as -0.188.
With `CCGCGGA` the 7-mer Z-score was -0.338.
`UAAGCAC` has a 7-mer Z-score of -0.104.
`UGAACGC` gave a 7-mer Z-score of -0.112.
`UUGGGGC` has a 7-mer Z-score of 0.204.
`UCUCCCU` gave a 7-mer Z-score of -0.322.
`GAGGGCC` gave a 7-mer Z-score of 0.0605.
The 7-mer Z-score of `UUGUCGC` is reported as -0.456.
The 7-mer Z-score of `AGGCAAG` is reported as 0.316.
`GGCGUAA` has a 7-mer Z-score of 0.0696.
`AGUCAUU` has a 7-mer Z-score of -0.229.
For `GUCGUCA`, the 7-mer Z-score was -0.389.
`UGGAGGC` gave a 7-mer Z-score of 0.318.
The 7-mer Z-score of `UGUUACA` is reported as -0.15.

Set 4
Target: Histone acetyltransferase KAT6A, winged helix 1, GST fusion (KAT6A, Homo sapiens, UniProt Q92794, residues 1-85)
Method: protein binding microarray
Molecule type: double-stranded DNA, one strand shown
Sample: in vitro
Tested at: not given
Setting: 8-mer, flanks averaged, mean of 2 arrays, mostly near background
Reference: not given
Reading: higher = stronger binding
Target sequence (chain): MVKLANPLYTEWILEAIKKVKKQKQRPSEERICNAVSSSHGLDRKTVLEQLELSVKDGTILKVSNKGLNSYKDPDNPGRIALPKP
`CTCTCCTC` gave an E-score of -0.124.
For `TAGCGGGA`, the E-score was 0.244.
For `TTCAACAA`, the E-score was -0.0792.
The E-score of `CCTTAGGA` is reported as -0.162.
`CTATTGCC` gave an E-score of 0.0505.
For `CTAGCTAA`, the E-score was -0.103.
`AAACACCA` gave an E-score of -0.0703.
For `CTCACATC`, the E-score was -0.134.
`CTTAACGC` gave an E-score of 0.0882.
`AGTGTACC` gave an E-score of -0.0627.
`CAAATCCC` has an E-score of -0.0276.
`AGGTGGGC` gave an E-score of -0.16.
`TATCCATA` has an E-score of -0.183.
With `GAGGTCGA` the E-score was -0.134.
The E-score of `CATAAAGG` is reported as -0.117.
`ACTAAGCG` gave an E-score of 0.201.
With `CCTCAGAG` the E-score was -0.125.
`ACTCTCAG` gave an E-score of -0.113.
`CCCCAAAA` gave an E-score of -0.229.
With `ATGGGTTG` the E-score was -0.15.
`CCGCCTCG` gave an E-score of 0.279.
The E-score of `AACTCACT` is reported as -0.235.
`CCTTCTTC` gave an E-score of -0.0833.

Some of these lines once more (set 4):
`ACTAAGCG` gave an E-score of 0.201.
`CTATTGCC` gave an E-score of 0.0505.
For `CTCACATC`, the E-score was -0.134.
The E-score of `CATAAAGG` is reported as -0.117.
The E-score of `CCTTAGGA` is reported as -0.162.
For `CTAGCTAA`, the E-score was -0.103.
`ACTCTCAG` gave an E-score of -0.113.
`CTCTCCTC` gave an E-score of -0.124.
With `CCTCAGAG` the E-score was -0.125.
